# Experimental data of several laboratories.
# Compare with care: the assays were run in different laboratories.
Structure (SMILES),test,test system,conditions,Tmax
CC(F)(F)c1nc2nc(CO)cc(Nc3ccc(S(F)(F)(F)(F)F)cc3)n2n1,"LC-MS/MS, non-compartmental",malaria patients,"600 mg of parent drug, median",114 h
C[C@@H](N)C1CCN(S(=O)(=O)c2cccc3cnccc23)CC1,,"healthy volunteers, plasma","oral, 150 mg, fed, single dose",0.88 h
CO[C@H]1CC[C@H](N2C(=O)CNc3ncc(-c4ccc(C(C)(C)O)nc4)nc32)CC1,,"patients, plasma","oral, 45 mg, day 15, median",1.63 h
COc1nnc2ccc(N3CCC(c4ccc(OCCN5CCN(C)C(=O)[C@H]5C)cc4)CC3)nn12,,"patients, plasma","oral, 10 mg twice daily, multiple dose, monotherapy, median",1.72 h
CNC(=O)c1ccc(-c2cnc3ncc(Cc4ccc5ncccc5c4)n3n2)cc1F,,"Japanese patients, plasma","oral, 400 mg twice daily, cycle 1 day 15, fasting, steady state",1.07 h
C=CC(=O)NC1CCN(c2ncc3ncnc(Nc4ccc(Oc5ccc6c(c5)ncn6C)c(C)c4)c3n2)CC1,,"healthy male volunteers, plasma","intravenous infusion, 100 µg, 15 min infusion, [14C] microtracer",0.233 h
C[C@H]1CN(C(=O)CC#N)[C@]12CCN(c1ncnc3[nH]ccc13)C2,,"healthy adults, plasma","oral, 12 mg single dose, median",1 h
CCc1nc2c(C)cc(N3CCN(CC(=O)N4CC(O)C4)CC3)cn2c1N(C)c1nc(-c2ccc(F)cc2)c(C#N)s1,,"healthy volunteers, fed, plasma","oral, 300 mg single dose, day 1, capsule",2 h
CCCCCCCCCCCCCCCC(=O)N[C@@H](CCC(=O)NCCCC[C@@H]1NC(=O)[C@H]([C@@H](C)CC)NC(=O)[C@@H](NC(=O)[C@@H]2CCCN2C(=O)[C@H](Cc2ccccc2)NC(=O)[C@H](Cc2c[nH]cn2)NC(=O)[C@@H](NC(=O)[C@H](CC(=O)O)NC(=O)CC(C)C)[C@@H](C)O)CSSC[C@@H](C(=O)N[C@@H](CCCCN)C(N)=O)NC(=O)CNC(=O)[C@H](CCCCN)NC(=O)[C@H](CO)NC(=O)[C@H](CCCNC(=N)N)NC(=O)[C@@H]2CCCN2C(=O)[C@H](CCC(=O)O)NC(=O)[C@H](Cc2ccccc2)NC1=O)C(=O)O,,"healthy volunteers, plasma","subcutaneous, 20 mg single, lyophilised formulation, median",24 h
CN(CCC(=O)O)C(=O)c1ccc2c(c1)CC[C@@H]1[C@@H]2CC[C@]2(C)C(c3cncc(F)c3)=CC[C@@H]12,,"postmenopausal women, plasma","30 mg single dose, median",2.02 h
Oc1ccc([C@@H](O)c2cc(-c3ncnc4cc(N5CCOCC5)ccc34)c(F)cc2Cl)nn1,median,"healthy volunteers, plasma","oral, 100 mg, fasted oral suspension",0.5 h
O=C(c1cccnc1-c1ccncc1)N1CCC(O)(Cc2ccccc2)CC1,,"healthy Japanese adults, plasma","oral, 300 mg twice daily, day 21, median",0.5 h
CN[C@H](CC(C)C)C(=O)N[C@H]1C(=O)N[C@@H](CC(N)=O)C(=O)N[C@H]2C(=O)N[C@H]3C(=O)N[C@H](C(=O)N[C@H](C(=O)O)c4cc(O)cc(O)c4-c4cc3ccc4O)[C@H](O)c3ccc(c(Cl)c3)Oc3cc2cc(c3O[C@@H]2O[C@H](CO)[C@@H](O)[C@H](O)[C@H]2O[C@H]2C[C@](C)(N)[C@H](O)[C@H](C)O2)Oc2ccc(cc2Cl)[C@H]1O,,"guinea pig, tissue cage fluid","local, 10 mg/mL, poloxamer 407 hydrogel",0 h
C=C(F)C(=O)N1CCN(c2nc(OC[C@@H]3CCCN3C)nc3c2CCN(c2cccc4cccc(Cl)c24)C3)C[C@@H]1CC#N,,"healthy volunteers, plasma",600 mg,7 h
C[C@@](Cc1ccc(O)c(O)c1)(NN)C(=O)O,,"male Parkinson's disease patients, plasma","oral, median",2 h
CCCCC[C@H](O)CC[C@@H]1[C@H]2Cc3cccc(OCC(=O)O)c3C[C@H]2C[C@H]1O,LC-MS/MS,"Japanese IPAH/HPAH patients, plasma","inhaled, 54 µg, mean",0.23 h
CCc1nc(C(N)=O)c(Nc2ccc(N3CCC(N4CCN(C)CC4)CC3)c(OC)c2)nc1NC1CCOCC1,,"Japanese patients, plasma","oral, 120 mg, cycle 1 day 28, multiple doses, median",5.06 h

# Excerpt of the above:
Structure (SMILES),test,test system,conditions,Tmax
C=CC(=O)NC1CCN(c2ncc3ncnc(Nc4ccc(Oc5ccc6c(c5)ncn6C)c(C)c4)c3n2)CC1,,"healthy male volunteers, plasma","intravenous infusion, 100 µg, 15 min infusion, [14C] microtracer",0.233 h
C[C@H]1CN(C(=O)CC#N)[C@]12CCN(c1ncnc3[nH]ccc13)C2,,"healthy adults, plasma","oral, 12 mg single dose, median",1 h
